Measured values pooled from the literature.
Protocols differ between the studies behind these lines. Numbers after ± are the reported error.

NC1(C(=O)N[C@@H](CCO)c2ccc(Cl)cc2)CCN(c2nc[nH]c3nccc2-3)CC1  incidence of white blood cell decreased (metastatic CRPC patients; 480 mg b.i.d., any grade, treatment-related, with: enzalutamide 160 mg daily): 0%
CC(C)n1c(Nc2cccnc2)nc2cnc(Nc3ccc(N4CCN(C)CC4)cc3)nc21  change in Cmax (human, plasma; dose not given, with: rifampin; relative to: without rifampin): no effect
Cc1nn(CC(F)(F)F)cc1Nc1nccc(NCCc2cnc[nH]2)n1  effective permeability (PAMPA; PBS; 5 h, pH 7.4): 0.0623 ×10⁻⁶ cm/s
O=C(O)CCC(=O)O.[2H]C([2H])([2H])Oc1cc(C)c2[nH]ccc2c1CN1CC[C@@H](C2CC2)C[C@H]1c1ccc(C(=O)O)cc1  Tmax (human, plasma; 100 mg twice daily, day 10, multiple ascending dose, median): 2 h
O=C(c1cccnc1-c1ccncc1)N1CCC(O)(Cc2ccccc2)CC1  slope, QTcF-concentration relationship (human, plasma; oral, single analyte model): 0.00013 ms/(ng/mL)
CCCCCCCCCCCCCC(=O)[O-].C[N+](C)(C)CCO  critical aggregation concentration (fluorescence probe; water; 37 °C): 13.75 ± 0.07 mmol/L
CC[C@H](C)[C@H](NC(C)=O)C(=O)N[C@H]1CSSC[C@@H](C(=O)N[C@H](C(N)=O)[C@@H](C)O)NC(=O)[C@H](CCCNC(=N)N)NC(=O)[C@H](Cc2c[nH]cn2)NC(=O)[C@@](C)(CC)NC(=O)CNC(=O)[C@H](Cc2c[nH]c3ccccc23)NC(=O)[C@H](CC(=O)O)NC(=O)[C@H](CCC(N)=O)NC(=O)[C@H](Cc2c[nH]c3ccccc23)NC(=O)[C@H](C(C)C)NC1=O  retention factor (isocratic RP-HPLC, C18; 32% acetonitrile, phosphate pH 7.4, 1% TFA; 25 °C): 1.31 ± 0.008
CO[C@@H]1[C@H](OC(=O)N2CC(CCN3CCOCC3)C2)CC[C@]2(CO2)[C@H]1[C@@]1(C)O[C@@H]1CC=C(C)C  INR change (human; dose not given, day 28, multiple ascending dose, unit not given; relative to: baseline): 0.01 ± 0.04
CCc1cc(C(=O)NC)c2nccc(N3CCc4c(cc(Cn5ccnc5)cc4-c4cn(C)nc4C(F)(F)F)C3=O)c2c1  serum ALT activity (Sprague Dawley rats; oral, 100 mg/kg once daily, 7 days): 59.3 ± 7.5 U/L
CNC(=O)c1ccc(-c2cnc3ncc(Cc4ccc5ncccc5c4)n3n2)cc1F  Pyelonephritis dose reduction/interruption (Japanese patients; oral, 400 mg, grade 3/4): 1%
COc1cc2c3c(n(CCCN4CCOCC4)c(=O)c2cc1OC)-c1cc2c(cc1C3=O)OCO2  Vz (beagle dog, female, plasma; intravenous infusion, 100 mg/m^2, 1 h infusion, vehicle 1): 748 ± 240 L/m²
C=CCN1CC(=O)N2[C@@H](Cc3ccc(O)cc3F)C(=O)N(Cc3cccc(N4CC(N5CCN(CC)CC5)C4)n3)C[C@@H]2N1C(=O)NCc1ccccc1  treatment-related vomiting (advanced solid tumour patients; oral, 45 mg twice daily, any grade, dose-escalation): 75%
C=CC(=O)N1CCC(c2ccc(C(N)=O)c(-c3ccc(Oc4ccccc4)cc3)n2)CC1  incidence of serious GI infection (CTCAE 4.03; patients with relapsed/refractory MCL; oral, dose not given): 0.9%
COc1cc2nccc(Oc3ccc(NC(=O)c4cc5c(n(-c6ccccc6)c4=O)CCCC5=O)nc3)c2cc1OC  grade ≥3 Anaemia patients (relapsed or refractory AML; oral, 6 mg once daily): 33.3%
CCO[C@H]1CCN(Cc2c(OC)cc(C)c3[nH]ccc23)[C@H](c2ccc(C(=O)O)cc2)C1  incidence impaired fasting glucose (PNH patients, active haemolysis; oral, 25 mg, 4 weeks, treatment): 0%
Cl.[2H]C([2H])([2H])CC(=O)c1cnc(NC(=O)C2CC2)cc1Nc1cccc(-c2ncn(C([2H])([2H])[2H])n2)c1OC  terminal elimination rate constant (human, non-fasted; oral, 30 mg twice daily, day 14, multiple dose, tablet, geometric mean): 2.53e-05 s⁻¹
CCCCOc1ccc([C@H]2CC[C@H](CCC)CC2)c(F)c1F  median concentration (human mother-newborn pairs, maternal serum): 5.17 ng/mL
COc1ncc(-c2nc3c(n2C(C)C)[C@H](c2ccc(Cl)cc2)N(c2cc(Cl)cn(C)c2=O)C3=O)c(OC)n1  AUC(0-last) (LC-MS/MS; human, plasma; oral, 30 mg, cycle 1 day 8, low-dose arm): 987 ng·h/mL
CCn1c(=O)c2c(nc(/C=C/c3ccc(OC)c(OC)c3)n2C)n(CC)c1=O  purity (HPLC; solution; after 1 h light exposure): 63.1%
CCN1/C(=C/C(C)=O)Sc2ccc(F)cc21  diastolic blood pressure change (cynomolgus monkey; oral, 100 mg/kg, 1 h post-dose; relative to: pre-dose): 97.1 ± 3.1%
O=C(Nc1nc2cccc(-c3ccc(CN4CCS(=O)(=O)CC4)cc3)n2n1)C1CC1  treatment-emergent adverse events (measured: gastrointestinal disorders; human rheumatoid arthritis patients; oral, 150 mg once daily, 4 weeks, regardless of relatedness): 13.3%
NC(=O)N1c2ccccc2C=Cc2ccccc21  AUC(0-12h) (healthy human subjects, plasma; oral, dose not given, day 21, twice daily, with glecaprevir and pibrentasvir): 81600 ng·h/mL
CNCc1ccc(-c2[nH]c3cc(F)cc4c3c2CCNC4=O)cc1  patients with adverse event (measured: Nausea; human patients; oral, 600 mg twice daily, grade 3): 0%
CCn1cc(C(=O)N2CCOCC2)c(=O)c2cc(NC3Cc4ccccc4C3)cnc21  AUC(0-12h) (human female, fed, plasma; oral, 900 mg twice daily, day 7, tablet, arithmetic mean): 51100 ng·h/mL
CCc1nc(C(N)=O)c(Nc2ccc(N3CCC(N4CCN(C)CC4)CC3)c(OC)c2)nc1NC1CCOCC1  AUC(0-24) (Japanese patients, plasma; oral, 120 mg, cycle 0 day -2, single dose, median): 2740 ng·h/mL
Cc1cc(NC2CCN(C(=O)OC3CCN(C(=O)/C=C/CN(C)C)C3)CC2)n2ncc(C(C)C)c2n1 (centres unmarked)  patients with adverse event (Phase I dose escalation CTCAE v4.0, measured: Ascites; patients with advanced solid tumours; dose not given, all dose schedules any grade): 6%
CC(C)(C(=O)N1CCOc2c(C#N)cncc2C1)C(F)F  subjects with adverse event (measured: eye disorders; human; oral, 20 mg once daily, 14 days, multiple ascending dose): 0%
CCCC[C@H](NC(=O)[C@@H](NC(=O)[C@H](CCC(=O)O)NC(=O)CNC(=O)[C@@H](NC(=O)[C@H](Cc1ccccc1)NC(=O)[C@H](C)NC(=O)[C@H](CCCCN)NC(=O)CNC(=O)[C@H](Cc1ccccc1)NC(=O)[C@H](CCCCN)NC(=O)[C@H](CCCCN)NC(=O)[C@H](C)NC(=O)[C@H](CO)NC(=O)[C@H](Cc1c[nH]cn1)NC(=O)[C@]1(C)CCCC=CCCC[C@](C)(NC(=O)CN)C(=O)NCC(=O)N[C@@H](CCCCN)C(=O)N[C@@H](Cc2ccccc2)C(=O)N1)C(C)C)[C@@H](C)CC)C(=O)N[C@@H](CC(N)=O)C(=O)N[C@@H](CO)C(N)=O  retention time (HPLC C18 column): 12.2 min
COc1cc(N2CCC(N3CCN(C)CC3)CC2)ccc1Nc1ncc(Cl)c(Nc2ccccc2P(C)(C)=O)n1  bound fraction (healthy subjects, plasma; ex vivo, mean): 0.0883
CC(C)[C@@H](CN1CC[C@@](C)(c2cccc(O)c2)[C@@H](C)C1)NC(=O)[C@H]1Cc2ccc(O)cc2CN1  AUCtotal (Sprague-Dawley rat, brain; intraperitoneal, 5 mg/kg): 10100 ng·h/g
NC[C@@]1(CC(=O)O)[C@@H]2CC[C@H]3C[C@@H]2[C@@H]1C3  unbound AUC(0-inf) (human, severe renal impairment, plasma; dose not given, geometric mean): 5990 ng·h/mL
NC(N)=NCCC[C@@H](N)C(=O)N[C@@H](CCCN=C(N)N)C(=O)N1CCC[C@H]1C(=O)N1C[C@H](O)C[C@H]1C(=O)NCC(=O)N[C@@H](Cc1cccs1)C(=O)N[C@@H](CO)C(=O)N1Cc2ccccc2C[C@@H]1C(=O)N1[C@H](C(=O)N[C@@H](CCCN=C(N)N)C(=O)O)C[C@@H]2CCCC[C@@H]21  central volume (Vc/F) (popPK full model estimate; human; subcutaneous, dose not given): 20.7 L

Some of these lines once more:
CC(C)(C(=O)N1CCOc2c(C#N)cncc2C1)C(F)F  subjects with adverse event (measured: eye disorders; human; oral, 20 mg once daily, 14 days, multiple ascending dose): 0%
CCCC[C@H](NC(=O)[C@@H](NC(=O)[C@H](CCC(=O)O)NC(=O)CNC(=O)[C@@H](NC(=O)[C@H](Cc1ccccc1)NC(=O)[C@H](C)NC(=O)[C@H](CCCCN)NC(=O)CNC(=O)[C@H](Cc1ccccc1)NC(=O)[C@H](CCCCN)NC(=O)[C@H](CCCCN)NC(=O)[C@H](C)NC(=O)[C@H](CO)NC(=O)[C@H](Cc1c[nH]cn1)NC(=O)[C@]1(C)CCCC=CCCC[C@](C)(NC(=O)CN)C(=O)NCC(=O)N[C@@H](CCCCN)C(=O)N[C@@H](Cc2ccccc2)C(=O)N1)C(C)C)[C@@H](C)CC)C(=O)N[C@@H](CC(N)=O)C(=O)N[C@@H](CO)C(N)=O  retention time (HPLC C18 column): 12.2 min
